Measured values collected from several papers.
Compare with care: the assays were run in different laboratories.
Organism: Enterococcus faecium

CC(=O)NC[C@H]1CN(c2ccc(N3CCOCC3)c(F)c2)C(=O)O1  ED50 (-30 vancomycin-intermediate, mice, systemic infection; intravenous, 2 and 8 h post-infection, survival over 7 days): 24.7 mg/kg
C/C=C(\C)c1cc(OC(=O)c2c(O)c(C)c(O)c(Cl)c2/C(C)=C/C)c(C)c(O)c1C(=O)O  MIC (broth microdilution; 36235): 64 µg/mL
CO[C@H]1[C@H](O[C@H]([C@H]2O[C@@H](n3ccc(=O)[nH]c3=O)[C@H](O)[C@@H]2O)[C@H](NCCCNC(=O)[C@@H](NC(=O)[C@@H](NC(=O)N[C@H](C(=O)O)C(C)C)[C@@H]2CCN=C(N)N2)[C@@H](O)C(C)C)C(=O)O)O[C@H](CN)[C@H]1O  MIC90 (resazurin microplate; NR-32065): > 35 µg/mL
CC[C@H]1OC(=O)[C@H](C)[C@@H](O[C@H]2C[C@@](C)(OC)[C@@H](O)[C@H](C)O2)[C@H](C)[C@@H](O[C@@H]2O[C@H](C)C[C@H](N(C)C)[C@H]2O)[C@](C)(O)C[C@@H](C)/C(=N\OCOCCOC)[C@H](C)[C@@H](O)[C@]1(C)O  MIC90 (agar dilution; vancomycin-intermediate; 25 isolates): > 128 µg/mL
CC(=O)NC[C@H]1CN(c2ccc(N3CCOCC3)c(F)c2)C(=O)O1  MIC (NR-31909): 2.96 µM
CN[C@H](CC(C)C)C(=O)N[C@H]1C(=O)N[C@@H](CC(N)=O)C(=O)N[C@H]2C(=O)N[C@H]3C(=O)N[C@H](C(=O)N[C@H](C(=O)O)c4cc(O)cc(O)c4-c4cc3ccc4O)[C@H](O)c3ccc(c(Cl)c3)Oc3cc2cc(c3O[C@@H]2O[C@H](CO)[C@@H](O)[C@H](O)[C@H]2O[C@H]2C[C@](C)(N)[C@H](O)[C@H](C)O2)Oc2ccc(cc2Cl)[C@H]1O  MIC90 (Enterococcus faecium; 40 strains): > 32 µg/mL
Cc1ccc(CCC(=O)Nc2nnc(S(N)(=O)=O)s2)cc1  MIC (NR-31970): 0.046 µM
Cc1c2c(nn1C)CSCc1cc(n(C)n1)CSc1cc(c3ccccc3c1)OCCCc1c(C(=O)O)n(C)c3c-2c(Cl)ccc13  number of isolates (broth microdilution MIC; 25 µM): 9
CN[C@H](CC(C)C)C(=O)N[C@H]1C(=O)N[C@@H](CC(N)=O)C(=O)N[C@H]2C(=O)N[C@H]3C(=O)N[C@H](C(=O)N[C@H](C(=O)O)c4cc(O)cc(O)c4-c4cc3ccc4O)[C@H](O)c3ccc(c(Cl)c3)Oc3cc2cc(c3O[C@@H]2O[C@H](CO)[C@@H](O)[C@H](O)[C@H]2O[C@H]2C[C@](C)(N)[C@H](O)[C@H](C)O2)Oc2ccc(cc2Cl)[C@H]1O  ED50 (-30, compound-intermediate, mouse systemic infection; intravenous; survival): 28.6 mg/kg

For quick reference, copied from above:
Cc1c2c(nn1C)CSCc1cc(n(C)n1)CSc1cc(c3ccccc3c1)OCCCc1c(C(=O)O)n(C)c3c-2c(Cl)ccc13  number of isolates (broth microdilution MIC; 25 µM): 9
